Assay results of several laboratories.
Compare with care: the assays were run in different laboratories. “And” joins repeats or separate records; there may be more than shown. ± gives the spread as reported. Values after ≈ are worked out from the molar mass of the structure shown.

Compound | assay | test system | setting | how to read | measurement | value
Cc1nc(-c2ccc(OCC(C)C)c(C#N)c2)sc1C(=O)O | – | human, plasma | oral, 20 mg, added: verinurad 5 mg | baseline: test over reference | geometric mean ratio AUC(0-24) | 92.6
NC1(C(=O)N[C@@H](CCO)c2ccc(Cl)cc2)CCN(c2nc[nH]c3nccc2-3)CC1 | – | metastatic CRPC patients | 320 mg b.i.d., grade 3 to 4, treatment-related, added: enzalutamide 160 mg daily | – | incidence of Hyper-glycaemia | 0%
C[C@@H](N)C1CCN(S(=O)(=O)c2cccc3cnccc23)CC1 | – | healthy volunteers | 75 mg, fasted | – | participants with mental impairment | 0%
Cc1nc2cccc(OCC(C)(C)C(=O)NC(C)C)c2c(N)c1C(=O)O | – | male Swiss albino CD-1 mouse, bone marrow | oral, 500 mg/kg, 24 h | – | micronucleated polychromatic erythrocytes | 0.04%
Cc1ccc([C@@H]2O[C@H](CO)[C@@H](O)[C@H](O)[C@H]2O)cc1Cc1ccc(-c2ccc(F)cc2)s1 | – | Japanese type 2 diabetes patients | 25 mg, day 18, 24 h urine collection | baseline: baseline | urinary magnesium excretion change | 28.3 mg
CCc1cc(C(=O)NC)c2nccc(N3CCc4c(cc(Cn5ccnc5)cc4-c4cn(C)nc4C(F)(F)F)C3=O)c2c1 | refers to: Mono | Sprague Dawley rat | oral, 50 mg/kg once daily, 7 days | baseline: vehicle | change in clinical chemistry or haematology parameter | 20.3%
Cc1cc(-c2nccc3c2ccn3CC(=O)Nc2ccc(-c3cnccn3)cn2)ccn1 | – | human | 15 mg once daily, multiple ascending dose | – | subjects with Dysgeusia adverse event | 11.1%
CCO[C@H]1CCN(Cc2c(OC)cc(C)c3[nH]ccc23)[C@H](c2ccc(C(=O)O)cc2)C1 | – | severe hepatic impairment patients | oral, 200 mg, geometric mean | – | unbound AUC(0-inf) | 13700 ng·h/mL
CC(C)=CC[C@@H](O)C1=CC(=O)c2c(O)ccc(O)c2C1=O | – | plasma | 25 ng/mL, 4 h, room temperature, stability | – | measured concentration | 23.5 ± 0.94 ng/mL
COc1cc2nccc(Oc3ccc(NC(=O)c4cc5c(n(-c6ccccc6)c4=O)CCCC5=O)nc3)c2cc1OC | – | human, relapsed/refractory AML | oral, 6 mg once daily, grade ≥3, any causality | – | patients with decreased platelet | 33.3%
Cc1cc(-c2nnc(N)nc2-c2ccc(F)cc2)cc(Cl)n1 | – | human, IO-naive CRC | oral, dose not given, phase Ia/Ib, any grade | – | patients with treatment-related AE | 84%
CNC(=O)c1cc(Oc2ccc(NC(=O)Nc3cc(C(C)(C)C)nn3-c3ccc4ncccc4c3)c(F)c2)ccn1 | refers to: worst grade 1 | human | oral, dose not given, cycles 1 and 2, High AUC(0-4 h) subgroup | – | patients with nervous system disorder AE | 33%
NC1(C(=O)N[C@@H](CCO)c2ccc(Cl)cc2)CCN(c2ncnc3[nH]ccc23)CC1 | – | human patients, plasma | 480 mg twice daily, day 8, continuous dosing | – | geometric mean Cmax | 2030 ng/mL
Cc1cccc(CNC(=O)c2cn(CCNC(=O)c3ccccc3Sc3c([N+](=O)[O-])ncn3C)c3cc4c(cc3c2=O)OC(F)(F)O4)n1 | – | Sprague-Dawley rat, male, whole blood | intramuscular, 30 mg/kg of parent drug | – | half-life | 7.4 h
COc1c(C)c2c(c(O[C@@H]3O[C@H](C(=O)O)[C@@H](O)[C@H](O)[C@H]3O)c1C/C=C(\C)CCC(=O)O)C(=O)OC2 | – | healthy subjects, plasma | oral, 1 g mycophenolate mofetil, added: isavuconazole | – | AUC(0-last), mean | 344 ng·h/mL
O=C(O)CCC(=O)O.[2H]C([2H])([2H])Oc1cc(C)c2[nH]ccc2c1CN1CC[C@@H](C2CC2)C[C@H]1c1ccc(C(=O)O)cc1 | – | healthy Chinese subjects | 100 mg, single ascending dose | – | TEAE urine bacteria positive | 16.7%
CC(=O)N[C@H]1CC[C@H](NC(=O)CN2CCN(c3nncc(-c4ccc(C)cc4)n3)CC2)CC1 | – | healthy human, plasma | oral, 100 mg single dose | baseline: female over male | AUC0-last ratio | 1.2
Cc1noc(C)c1Cn1cc(N2C(=O)CN(Cc3cccc(O)c3)C2=O)cn1 | – | pooled rat liver microsomes Sprague-Dawley | 50 µM, 30 min, pH 7.4 | – | remaining parent | 72 % peak area
CCc1c(-c2ccccc2)c(-c2ccccc2)nn1-c1ccccc1-c1cccc(OCC(=O)O)c1 | – | Sprague-Dawley rat, stomach | oral, 10 mg/kg, 8 h | – | concentration | 717 ng/g and 922 ng/g
CCOc1c([C@H](C)n2nc(C)c3c(N)ncnc32)cc(Cl)c(F)c1[C@@H]1CNC(=O)C1 | refers to: ΔQTcF > 60 ms | previously treated B-cell malignancy | oral, dose not given, all doses, overall population | – | share of patients | 1.4%
C=CCN1CC(=O)N2[C@@H](Cc3ccc(O)cc3F)C(=O)N(Cc3cccc(N4CC(N5CCN(CC)CC5)C4)n3)C[C@@H]2N1C(=O)NCc1ccccc1 | – | advanced solid tumour patients | oral, 100 mg twice daily, any grade, dose-escalation | – | treatment-related decreased appetite | 16.7%
CC(C)(C)c1sc2ncnc(Oc3c(F)cccc3OC(F)(F)F)c2c1-c1ccc(Cl)cc1 | – | wild-type mice, plasma | 30 mg/kg | – | oral bioavailability | 46%

Compound | assay | test system | setting | how to read | measurement | value
FC(F)(F)c1ccc(CNc2ccc(Cc3c[nH]c4ncc(Cl)cc34)cn2)cn1 | refers to: Hypertension | patients with advanced solid tumours | oral, dose not given, grade 1 and 2, possibly related to drug | – | adverse event incidence | 13%
CC(C)n1c(Nc2cccnc2)nc2cnc(Nc3ccc(N4CCN(C)CC4)cc3)nc21 | refers to: at least one TEAE | healthy male subjects | oral, 150 mg, study, added: rifampin | – | subjects with adverse event | 57.1%
COc1ccc2c(c1)CN(C(=O)CCN1CCC(Cc3ccccc3)CC1)CC[S@@+]2[O-] | telemetry | conscious male beagle dogs | intravenous, 2 mg/kg, 24 h | – | systolic blood pressure | 140 ± 14 mmHg
C=CC(=O)N(C)CCOc1c(N)ncnc1-c1cc(F)cc(NC(=O)c2ccc(C3CC3)cc2F)c1C | – | human, plasma | oral, 600 mg once daily, day 12 | – | AUC | 1230 ng·h/mL
Cl.[2H]C([2H])([2H])CC(=O)c1cnc(NC(=O)C2CC2)cc1Nc1cccc(-c2ncn(C([2H])([2H])[2H])n2)c1OC | median | human | oral, 20 mg twice daily, day 1, fed, liquid, multiple dose | – | Tmax | 3.1 h
CC[C@@H]([C@H](C)O)n1ncn(-c2ccc(N3CCN(c4ccc(OC[C@@H]5CO[C@@](Cn6cncn6)(c6ccc(F)cc6F)C5)cc4)CC3)cc2)c1=O | – | rat plasma | 1600 ng/mL, 4 h, 10 °C, autosampler | baseline: nominal concentration | stability relative error | 0%
C[C@H]1O[C@@H](O[C@H]2[C@@H](O)C[C@H](O[C@H]3[C@@H](O)C[C@H](O[C@H]4CC[C@@]5(C)[C@H](CC[C@@H]6[C@@H]5C[C@@H](O)[C@]5(C)[C@@H](C7=CC(=O)OC7)CC[C@]65O)C4)O[C@@H]3C)O[C@@H]2C)C[C@H](O)[C@@H]1O | refers to: thirst | healthy men | oral, dose not given, 8 days, treatment-emergent, crossover trial | – | subjects with adverse event | 0%
CNCc1ccc(-c2[nH]c3cc(F)cc4c3c2CCNC4=O)cc1 | – | human patients | oral, 480 mg twice daily, all grades | – | dizziness incidence | 22.2%
Cn1cnc2c(F)c(Nc3ccc(Br)cc3Cl)c(C(=O)NOCCO)cc21 | population PK model | human, plasma | oral, sequential zero-first-order absorption | baseline: fed over fasted | relative bioavailability | 0.85
CCCCC1=NC2(CCCC2)C(=O)N1Cc1ccc(-c2ccccc2S(=O)(=O)Nc2noc(C)c2C)c(COCC)c1 | – | healthy adult volunteers, plasma | oral, 200 mg, single dose, fed, crushed tablet | – | Cmax | 4950 ng/mL
C[C@H](CCC(=O)NCC(=O)O)[C@H]1CC[C@H]2[C@@H]3CC[C@@H]4C[C@H](O)CC[C@]4(C)[C@H]3CC[C@]12C | – | human, plasma | endogenous baseline diurnal | baseline: daily mean concentration | relative peak deviation | 180 ± 20%
CO[C@H]1C[C@@H]2CC[C@@H](C)[C@@](O)(O2)C(=O)C(=O)N2CCCC[C@H]2C(=O)O[C@H]([C@H](C)C[C@@H]2CC[C@@H](OC(=O)NCCOCCOCCOCCOCCOCCOCCOCCOCCC(=O)N3CCc4cc(Cn5nc(-c6ccc7oc(N)nc7c6)c6c(N)ncnc65)ccc4C3)[C@H](OC)C2)C[C@@H](O)[C@H](C)/C=C(\C)[C@@H](O)[C@@H](OC)C(=O)[C@H](C)C[C@H](C)/C=C/C=C/C=C/1C | – | human, plasma | intravenous, 16 mg, cycle 1 day 1, arithmetic mean | – | Tmax | 1 h
COc1nnc2ccc(N3CCC(c4ccc(OCCN5CCN(C)C(=O)[C@H]5C)cc4)CC3)nn12 | – | patients, plasma | oral, 15 mg twice daily, multiple dose, monotherapy | – | terminal half-life | 1.89 h
O=C(O)CSc1nnc(Br)n1-c1ccc(C2CC2)c2ccccc12 | – | KM mouse, chronic hyperuricaemia model | dose not given, day 28 | – | body weight | 33.2 g and 35 g and 39 g and 40.8 g and 37.4 g and 38 g
CCn1c(=O)c(-c2cc(NC(=O)Nc3ccccc3)c(F)cc2Br)cc2cnc(NC)cc21 | refers to: amylase increased | human, mild hepatic impairment | oral, 50 mg single dose | – | participants with grade ≥ 3 TEAE | 12.5%
O=C1CSCCN1c1ccc(CO[C@@H]2COc3nc([N+](=O)[O-])cn3C2)cn1 | – | aqueous buffer | pH 7.4 | – | aqueous solubility | 27.6 µg/mL (≈ 70.5 µM)
O=C(Nc1nc2cccc(-c3ccc(CN4CCS(=O)(=O)CC4)cc3)n2n1)C1CC1 | refers to: arthropod sting allergy | rheumatoid arthritis patients | oral, 75 mg once daily, 4 weeks, any relatedness | – | treatment-emergent adverse events | 0%
C[C@@H](Oc1ccc(S(C)(=O)=O)cc1C(=O)N1C[C@@H]2C[C@]2(c2cc(C(F)(F)F)on2)C1)C(F)(F)F | refers to: Cmax | healthy human volunteers | oral, 10 mg | baseline: fed over fasted | fed over fasted ratio | 118%
COc1cc(Nc2ncc3c(n2)-c2ccc(Cl)cc2C(c2c(F)cccc2OC)=NC3)ccc1C(=O)O | – | cancer patients | oral, dose not given, grade 1 any attribution, added: pembrolizumab | – | patients with increased INR | 13%
CCCCCCCCCCCCCCCC(=O)N[C@@H](CCC(=O)NCCCC[C@@H]1NC(=O)[C@H]([C@@H](C)CC)NC(=O)[C@@H](NC(=O)[C@@H]2CCCN2C(=O)[C@H](Cc2ccccc2)NC(=O)[C@H](Cc2c[nH]cn2)NC(=O)[C@@H](NC(=O)[C@H](CC(=O)O)NC(=O)CC(C)C)[C@@H](C)O)CSSC[C@@H](C(=O)N[C@@H](CCCCN)C(N)=O)NC(=O)CNC(=O)[C@H](CCCCN)NC(=O)[C@H](CO)NC(=O)[C@H](CCCNC(=N)N)NC(=O)[C@@H]2CCCN2C(=O)[C@H](CCC(=O)O)NC(=O)[C@H](Cc2ccccc2)NC1=O)C(=O)O | – | healthy volunteers, plasma | subcutaneous, 10 mg | baseline: parent plus metabolites | AUC(0-inf) share of total | 65.5 ± 3.96%
CNC(=O)c1ccc(-c2cnc3ncc(Cc4ccc5ncccc5c4)n3n2)cc1F | – | human moderate hepatic impairment NCI | oral, 200 mg single dose, mean | – | AUC(0-t) | 7970 ng·h/mL

For quick reference, copied from above:
Compound | assay | test system | setting | how to read | measurement | value
O=C(Nc1nc2cccc(-c3ccc(CN4CCS(=O)(=O)CC4)cc3)n2n1)C1CC1 | refers to: arthropod sting allergy | rheumatoid arthritis patients | oral, 75 mg once daily, 4 weeks, any relatedness | – | treatment-emergent adverse events | 0%
C[C@@H](Oc1ccc(S(C)(=O)=O)cc1C(=O)N1C[C@@H]2C[C@]2(c2cc(C(F)(F)F)on2)C1)C(F)(F)F | refers to: Cmax | healthy human volunteers | oral, 10 mg | baseline: fed over fasted | fed over fasted ratio | 118%
COc1cc(Nc2ncc3c(n2)-c2ccc(Cl)cc2C(c2c(F)cccc2OC)=NC3)ccc1C(=O)O | – | cancer patients | oral, dose not given, grade 1 any attribution, added: pembrolizumab | – | patients with increased INR | 13%
CCCCCCCCCCCCCCCC(=O)N[C@@H](CCC(=O)NCCCC[C@@H]1NC(=O)[C@H]([C@@H](C)CC)NC(=O)[C@@H](NC(=O)[C@@H]2CCCN2C(=O)[C@H](Cc2ccccc2)NC(=O)[C@H](Cc2c[nH]cn2)NC(=O)[C@@H](NC(=O)[C@H](CC(=O)O)NC(=O)CC(C)C)[C@@H](C)O)CSSC[C@@H](C(=O)N[C@@H](CCCCN)C(N)=O)NC(=O)CNC(=O)[C@H](CCCCN)NC(=O)[C@H](CO)NC(=O)[C@H](CCCNC(=N)N)NC(=O)[C@@H]2CCCN2C(=O)[C@H](CCC(=O)O)NC(=O)[C@H](Cc2ccccc2)NC1=O)C(=O)O | – | healthy volunteers, plasma | subcutaneous, 10 mg | baseline: parent plus metabolites | AUC(0-inf) share of total | 65.5 ± 3.96%
CNC(=O)c1ccc(-c2cnc3ncc(Cc4ccc5ncccc5c4)n3n2)cc1F | – | human moderate hepatic impairment NCI | oral, 200 mg single dose, mean | – | AUC(0-t) | 7970 ng·h/mL
